# Assay results pooled from the literature.
# Numbered parts are unrelated; each lists some results of a single study. Several values in a cell are separate wells, animals, samples, runs or records.
# Sequence of UniProt P43250 (whole entry, looked up): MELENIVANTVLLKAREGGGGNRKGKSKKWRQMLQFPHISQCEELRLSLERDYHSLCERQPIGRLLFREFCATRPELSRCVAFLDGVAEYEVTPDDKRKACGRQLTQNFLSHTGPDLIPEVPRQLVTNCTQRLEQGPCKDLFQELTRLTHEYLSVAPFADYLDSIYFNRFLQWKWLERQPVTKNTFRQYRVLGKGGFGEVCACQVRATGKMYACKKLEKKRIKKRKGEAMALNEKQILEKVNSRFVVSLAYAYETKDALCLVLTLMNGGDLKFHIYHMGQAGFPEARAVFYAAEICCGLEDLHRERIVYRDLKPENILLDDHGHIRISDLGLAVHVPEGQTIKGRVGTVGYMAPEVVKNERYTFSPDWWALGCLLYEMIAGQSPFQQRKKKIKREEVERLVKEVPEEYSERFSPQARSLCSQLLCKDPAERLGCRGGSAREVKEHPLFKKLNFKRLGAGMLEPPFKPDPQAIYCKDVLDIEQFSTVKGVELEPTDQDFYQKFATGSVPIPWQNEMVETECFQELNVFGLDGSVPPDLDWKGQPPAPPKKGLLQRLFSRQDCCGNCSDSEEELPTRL
# Sequence of UniProt P53779 (whole entry, looked up): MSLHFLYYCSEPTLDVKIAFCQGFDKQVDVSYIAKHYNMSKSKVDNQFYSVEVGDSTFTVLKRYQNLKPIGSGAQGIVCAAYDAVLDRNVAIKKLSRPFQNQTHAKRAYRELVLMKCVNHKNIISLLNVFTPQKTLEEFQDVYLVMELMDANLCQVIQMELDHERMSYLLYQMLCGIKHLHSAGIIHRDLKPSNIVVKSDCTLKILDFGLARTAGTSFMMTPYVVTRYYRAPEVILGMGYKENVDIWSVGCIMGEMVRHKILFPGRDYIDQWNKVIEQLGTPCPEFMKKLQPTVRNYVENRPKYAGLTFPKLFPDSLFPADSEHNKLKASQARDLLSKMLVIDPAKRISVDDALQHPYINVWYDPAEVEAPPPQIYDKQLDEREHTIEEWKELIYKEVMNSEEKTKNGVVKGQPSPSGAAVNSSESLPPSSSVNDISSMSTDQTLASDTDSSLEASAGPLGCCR
# Sequence of UniProt P41279 (whole entry, looked up): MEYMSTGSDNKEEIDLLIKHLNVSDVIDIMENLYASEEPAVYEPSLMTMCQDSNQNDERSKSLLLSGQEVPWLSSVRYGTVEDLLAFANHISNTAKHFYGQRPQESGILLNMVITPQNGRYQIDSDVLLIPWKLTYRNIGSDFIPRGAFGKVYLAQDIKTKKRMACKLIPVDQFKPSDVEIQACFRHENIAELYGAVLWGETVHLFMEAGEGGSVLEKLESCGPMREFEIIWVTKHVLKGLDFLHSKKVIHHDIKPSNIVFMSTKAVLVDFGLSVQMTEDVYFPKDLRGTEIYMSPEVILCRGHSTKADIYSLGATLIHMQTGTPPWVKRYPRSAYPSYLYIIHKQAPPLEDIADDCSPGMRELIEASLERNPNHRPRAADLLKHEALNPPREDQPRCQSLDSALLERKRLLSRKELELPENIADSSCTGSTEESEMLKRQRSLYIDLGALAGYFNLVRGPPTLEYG
# Sequence of UniProt Q9UHD2 (whole entry, looked up): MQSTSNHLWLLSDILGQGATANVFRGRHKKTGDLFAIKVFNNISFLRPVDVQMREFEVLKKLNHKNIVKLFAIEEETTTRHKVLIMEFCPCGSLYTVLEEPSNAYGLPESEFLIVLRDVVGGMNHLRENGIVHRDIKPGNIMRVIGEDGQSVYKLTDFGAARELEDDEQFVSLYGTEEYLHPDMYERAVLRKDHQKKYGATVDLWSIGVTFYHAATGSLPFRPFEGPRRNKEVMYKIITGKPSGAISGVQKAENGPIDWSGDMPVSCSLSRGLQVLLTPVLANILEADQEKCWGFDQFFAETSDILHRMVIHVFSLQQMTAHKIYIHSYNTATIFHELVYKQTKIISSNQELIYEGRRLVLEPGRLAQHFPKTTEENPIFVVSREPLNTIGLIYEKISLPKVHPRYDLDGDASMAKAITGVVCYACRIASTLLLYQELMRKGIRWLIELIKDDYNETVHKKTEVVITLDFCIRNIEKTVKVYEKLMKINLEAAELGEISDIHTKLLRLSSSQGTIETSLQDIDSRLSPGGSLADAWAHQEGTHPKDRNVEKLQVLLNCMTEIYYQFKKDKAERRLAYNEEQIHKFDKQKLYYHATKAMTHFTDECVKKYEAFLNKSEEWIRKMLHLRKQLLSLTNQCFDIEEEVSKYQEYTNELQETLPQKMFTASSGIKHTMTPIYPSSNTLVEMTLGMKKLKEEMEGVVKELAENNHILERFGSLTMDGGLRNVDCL
# Sequence of UniProt P07949 (whole entry, looked up): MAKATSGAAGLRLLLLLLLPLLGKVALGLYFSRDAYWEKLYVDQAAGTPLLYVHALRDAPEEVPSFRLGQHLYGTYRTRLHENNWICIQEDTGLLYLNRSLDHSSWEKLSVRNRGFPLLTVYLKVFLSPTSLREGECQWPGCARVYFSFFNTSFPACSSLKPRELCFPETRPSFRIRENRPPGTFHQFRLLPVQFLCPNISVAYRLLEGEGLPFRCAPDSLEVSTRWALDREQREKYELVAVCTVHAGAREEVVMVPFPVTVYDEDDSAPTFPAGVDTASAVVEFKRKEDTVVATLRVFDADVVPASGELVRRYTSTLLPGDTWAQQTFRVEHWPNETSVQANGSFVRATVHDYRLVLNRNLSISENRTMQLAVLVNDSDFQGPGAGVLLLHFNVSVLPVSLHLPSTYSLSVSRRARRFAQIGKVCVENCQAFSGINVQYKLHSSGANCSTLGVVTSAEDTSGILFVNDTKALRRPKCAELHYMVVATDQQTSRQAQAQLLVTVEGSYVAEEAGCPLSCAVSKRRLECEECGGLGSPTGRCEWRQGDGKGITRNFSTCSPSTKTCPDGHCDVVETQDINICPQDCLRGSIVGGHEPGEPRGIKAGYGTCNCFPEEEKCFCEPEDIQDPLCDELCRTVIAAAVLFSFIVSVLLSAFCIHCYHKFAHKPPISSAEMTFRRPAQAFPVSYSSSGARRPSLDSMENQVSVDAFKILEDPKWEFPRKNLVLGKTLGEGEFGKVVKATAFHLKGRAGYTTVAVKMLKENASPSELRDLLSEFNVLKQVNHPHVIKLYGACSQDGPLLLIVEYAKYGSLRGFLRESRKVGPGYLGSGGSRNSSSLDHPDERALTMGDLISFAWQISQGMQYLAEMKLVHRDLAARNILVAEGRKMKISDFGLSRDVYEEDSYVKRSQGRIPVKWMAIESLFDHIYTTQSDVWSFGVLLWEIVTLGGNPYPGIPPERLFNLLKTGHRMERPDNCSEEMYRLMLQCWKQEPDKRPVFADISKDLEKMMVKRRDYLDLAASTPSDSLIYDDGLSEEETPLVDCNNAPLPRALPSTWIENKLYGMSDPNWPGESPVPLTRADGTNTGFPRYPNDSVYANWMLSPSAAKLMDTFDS
# Sequence of UniProt P09769 (whole entry, looked up): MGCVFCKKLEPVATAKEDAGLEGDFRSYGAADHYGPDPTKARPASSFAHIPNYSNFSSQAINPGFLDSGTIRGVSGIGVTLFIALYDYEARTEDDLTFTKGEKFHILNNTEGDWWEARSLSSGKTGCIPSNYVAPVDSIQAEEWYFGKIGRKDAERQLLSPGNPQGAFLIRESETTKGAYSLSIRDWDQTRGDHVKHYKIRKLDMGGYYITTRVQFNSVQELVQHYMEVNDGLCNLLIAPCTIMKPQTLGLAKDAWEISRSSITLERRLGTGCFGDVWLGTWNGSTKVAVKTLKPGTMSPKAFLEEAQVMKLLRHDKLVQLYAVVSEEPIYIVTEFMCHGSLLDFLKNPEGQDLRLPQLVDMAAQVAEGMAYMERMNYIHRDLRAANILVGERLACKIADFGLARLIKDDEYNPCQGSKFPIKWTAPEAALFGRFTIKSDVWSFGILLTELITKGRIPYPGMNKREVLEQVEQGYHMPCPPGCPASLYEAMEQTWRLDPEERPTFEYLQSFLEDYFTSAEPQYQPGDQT
# Sequence of UniProt P34947 (whole entry, looked up): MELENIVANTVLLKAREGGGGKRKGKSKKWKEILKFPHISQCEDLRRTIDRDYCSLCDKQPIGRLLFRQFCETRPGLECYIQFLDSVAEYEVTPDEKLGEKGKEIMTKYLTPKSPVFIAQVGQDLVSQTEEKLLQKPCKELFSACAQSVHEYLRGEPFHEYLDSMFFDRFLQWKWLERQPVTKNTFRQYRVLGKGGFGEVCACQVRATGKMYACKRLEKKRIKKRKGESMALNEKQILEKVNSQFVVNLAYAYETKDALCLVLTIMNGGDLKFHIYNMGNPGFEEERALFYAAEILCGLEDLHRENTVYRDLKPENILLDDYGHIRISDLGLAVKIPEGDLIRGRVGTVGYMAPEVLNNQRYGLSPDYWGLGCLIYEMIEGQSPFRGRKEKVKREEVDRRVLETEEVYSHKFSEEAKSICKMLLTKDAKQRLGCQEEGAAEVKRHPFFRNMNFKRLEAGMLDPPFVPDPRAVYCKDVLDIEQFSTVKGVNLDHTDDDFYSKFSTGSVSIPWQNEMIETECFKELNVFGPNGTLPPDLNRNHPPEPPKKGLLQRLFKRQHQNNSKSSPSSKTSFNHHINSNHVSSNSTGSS

# Study 1
# Compound: CCCC(=O)Oc1ccc2[nH]c(C(=O)c3cc4ccccc4[nH]3)cc2c1
# Observed: enzyme activity
# Mode: inhibitor
# Concentration: 0.5 µM
# Baseline: control
target,remaining activity [%]
"BRSK1 (Homo sapiens, UniProt Q8TDC3)",99.5
"CAMK1G (Homo sapiens, UniProt Q96NX5)",100
"MAP3K8 (Homo sapiens, UniProt P41279)",97.6
"HIPK3 (Homo sapiens, UniProt Q9H422)",94.7
"DYRK4 (Homo sapiens, UniProt Q9NR20)",86
"CDK7 (Homo sapiens, UniProt P50613)",98.7
"Aurora kinase A (AURKA, Homo sapiens, UniProt O14965)",94.6
"DMPK (Homo sapiens, UniProt Q09013)",94.4
"CAMK1D (Homo sapiens, UniProt Q8IU85)",103
"NTRK3 (Homo sapiens, UniProt Q16288)",95.9
"ROS1 (Homo sapiens, UniProt P08922)",97
"NEK9 (Homo sapiens, UniProt Q8TD19)",110
"MAPK10 (Homo sapiens, UniProt P53779)",100
"RET (Homo sapiens, UniProt P07949)",100
"PKN2 (Homo sapiens, UniProt Q16513)",100
"PTK2B (Homo sapiens, UniProt Q14289)",87.6
"GRK5 (Homo sapiens, UniProt P34947)",100
"PRKD1 (Homo sapiens, UniProt Q15139)",88.7
"EGFR (Homo sapiens, UniProt P00533)",95.2
"SLK (Homo sapiens, UniProt Q9H2G2)",98.9
"MAP3K2 (Homo sapiens, UniProt Q9Y2U5)",81.7
"Cyclin-dependent kinase 2, with cyclin A (CDK2, Homo sapiens, UniProt P24941)",88.9

# Study 2
# Target: Calcium/calmodulin-dependent protein kinase type II subunit alpha (CAMK2A, Homo sapiens, UniProt Q9UQM7)
# Sequence of UniProt Q9UQM7 (whole entry, looked up): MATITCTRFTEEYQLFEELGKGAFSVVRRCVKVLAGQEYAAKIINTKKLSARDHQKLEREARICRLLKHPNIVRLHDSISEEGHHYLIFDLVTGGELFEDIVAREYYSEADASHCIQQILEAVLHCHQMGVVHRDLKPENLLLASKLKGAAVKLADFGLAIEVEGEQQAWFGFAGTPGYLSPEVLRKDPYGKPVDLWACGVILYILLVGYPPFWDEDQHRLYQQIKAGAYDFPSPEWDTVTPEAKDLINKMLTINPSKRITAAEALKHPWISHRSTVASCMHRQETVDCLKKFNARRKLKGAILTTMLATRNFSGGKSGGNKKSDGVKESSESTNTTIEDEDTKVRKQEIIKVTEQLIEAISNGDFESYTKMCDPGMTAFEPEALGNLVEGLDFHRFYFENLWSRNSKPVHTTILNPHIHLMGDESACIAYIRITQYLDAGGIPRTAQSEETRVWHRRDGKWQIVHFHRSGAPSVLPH
# Observed: enzyme activity
# Mode: inhibitor
# Concentration: 10 µM
Structure (SMILES),inhibition
COc1ccc(-c2coc3cc(O[C@@H]4O[C@H](CO[C@@H]5OC[C@@H](O)[C@H](O)[C@H]5O)[C@@H](O)[C@H](O)[C@H]4O)c(OC)c(O)c3c2=O)cc1,-36%
CC(C)(C)NCC(O)COc1cccc2c1C[C@H](O)[C@H](O)C2 (mixture of isomers),-9%
CCOC(=O)c1ccc(C#Cc2ccc3c(c2)C(C)(C)CCS3)nc1,-10%
COc1ccc2c(OC)c3ccoc3nc2c1,-5%
Cc1ccc2c(c1)c1c(n2CCc2ccc(C)nc2)CCN(C)C1,3%
C/C=C(/C)C(=O)Oc1c(OC)c(OC)cc2c1-c1c(cc(OC)c(OC)c1OC)C[C@](C)(O)[C@@H](C)C2,-10%
CC(C)C[C@@H](N)C(=O)O,9%
CC1=C(/C=C/C(C)=C/C=C/C(C)=C/C(=O)Nc2ccc(O)cc2)C(C)(C)CCC1,-8%

# Study 3
# SMILES: CCCOc1ccc([C@H]2[C@H](C(=O)O)[C@@H](c3ccc4c(c3)OCO4)CN2CC(=O)Nc2c(CC)cccc2CC)cc1
# Observed: cell-free assay
# Technique: competition with immobilised ligand
# Concentration: 1 µM
target,remaining binding [%]
"MARK3 (Homo sapiens, UniProt P27448)",100
"CSK (Homo sapiens, UniProt P41240)",80
"SBK3 (Homo sapiens, UniProt P0C264)",94
"STK32C (Homo sapiens, UniProt Q86UX6)",100
"WEE2 (Homo sapiens, UniProt P0C1S8)",85
"TLK1 (Homo sapiens, UniProt Q9UKI8)",74
"PRKACB (Homo sapiens, UniProt P22694)",87
"MAP4K5 (Homo sapiens, UniProt Q9Y4K4)",93
"MAPK10 (Homo sapiens, UniProt P53779)",80
"MAP3K1 (Homo sapiens, UniProt Q13233)",71
"FGR (Homo sapiens, UniProt P09769)",98

# Study 4
# SMILES: CC(C)S(=O)(=O)c1ccc2nccc(Nc3ccc4sc(C5CCCC5)nc4c3)c2c1.Cl
# Concentration: 1 µM
target,observed,mode,remaining activity
"PDGFRA (Homo sapiens, UniProt P16234)",kinase activity,inhibitor,107%
"MAP4K2 (Homo sapiens, UniProt Q12851)",kinase activity,inhibitor,90%
"YES1 (Homo sapiens, UniProt P07947)",kinase activity,inhibitor,92%
"PRKD2 (Homo sapiens, UniProt Q9BZL6)",kinase activity,inhibitor,94%
"GSK3A (Homo sapiens, UniProt P49840)",kinase activity,inhibitor,81%
"DYRK1B (Homo sapiens, UniProt Q9Y463)",kinase activity,inhibitor,85%
ACTR2(h) (human),,,99% and 96%
"GRK6 (Homo sapiens, UniProt P43250)",kinase activity,inhibitor,100% and 121%
"EIF2AK2 (Homo sapiens, UniProt P19525)",kinase activity,inhibitor,111%
"CDK9 (Homo sapiens, UniProt P50750)",kinase activity,inhibitor,96%
PKG1β(h) (human),,,126% and 113%
"MKNK2 (Homo sapiens, UniProt Q9HBH9)",kinase activity,inhibitor,104%
"TBK1 (Homo sapiens, UniProt Q9UHD2)",kinase activity,inhibitor,97%
